Published values pooled from the literature.
Every numbered part comes from another study and shows a few of its results, in no order. Values joined by “and” are separate records of one study, mostly repeats; a detail may differ.
Sequence of UniProt P29376 (whole entry, looked up): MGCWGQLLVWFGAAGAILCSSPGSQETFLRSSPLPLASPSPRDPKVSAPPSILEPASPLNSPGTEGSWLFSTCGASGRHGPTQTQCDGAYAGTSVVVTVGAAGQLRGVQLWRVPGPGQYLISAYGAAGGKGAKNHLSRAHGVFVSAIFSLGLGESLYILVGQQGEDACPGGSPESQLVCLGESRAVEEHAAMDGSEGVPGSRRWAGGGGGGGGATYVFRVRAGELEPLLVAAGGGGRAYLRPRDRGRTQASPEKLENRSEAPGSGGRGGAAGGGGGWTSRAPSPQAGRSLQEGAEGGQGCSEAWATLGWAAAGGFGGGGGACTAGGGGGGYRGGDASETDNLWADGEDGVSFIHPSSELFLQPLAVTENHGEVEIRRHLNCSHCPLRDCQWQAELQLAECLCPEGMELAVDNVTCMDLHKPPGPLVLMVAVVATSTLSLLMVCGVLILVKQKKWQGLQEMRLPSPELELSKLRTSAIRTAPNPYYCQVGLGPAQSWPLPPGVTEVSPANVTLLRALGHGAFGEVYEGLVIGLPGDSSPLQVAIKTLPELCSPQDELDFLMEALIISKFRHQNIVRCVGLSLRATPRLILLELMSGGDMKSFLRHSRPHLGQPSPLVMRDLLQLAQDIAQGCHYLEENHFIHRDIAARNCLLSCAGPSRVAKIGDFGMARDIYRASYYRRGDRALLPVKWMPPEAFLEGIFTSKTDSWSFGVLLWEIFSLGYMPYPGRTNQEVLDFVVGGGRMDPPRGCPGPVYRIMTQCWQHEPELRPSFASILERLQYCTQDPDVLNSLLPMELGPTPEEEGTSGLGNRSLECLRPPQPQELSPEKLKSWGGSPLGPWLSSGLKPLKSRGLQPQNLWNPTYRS
Sequence of UniProt Q13557 (whole entry, looked up): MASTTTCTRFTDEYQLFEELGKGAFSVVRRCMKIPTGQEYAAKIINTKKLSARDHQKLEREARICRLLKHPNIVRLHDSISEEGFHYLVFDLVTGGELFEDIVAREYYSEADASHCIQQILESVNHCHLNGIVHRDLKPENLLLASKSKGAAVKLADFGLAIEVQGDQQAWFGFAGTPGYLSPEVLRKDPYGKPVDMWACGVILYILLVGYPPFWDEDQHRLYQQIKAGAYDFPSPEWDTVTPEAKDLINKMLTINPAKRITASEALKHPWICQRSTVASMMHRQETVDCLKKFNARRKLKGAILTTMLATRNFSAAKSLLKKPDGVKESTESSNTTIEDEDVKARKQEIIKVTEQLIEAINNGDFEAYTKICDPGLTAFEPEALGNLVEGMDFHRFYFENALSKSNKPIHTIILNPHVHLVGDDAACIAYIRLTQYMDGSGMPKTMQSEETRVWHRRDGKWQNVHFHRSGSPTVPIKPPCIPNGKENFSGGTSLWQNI
Sequence of UniProt P78356 (whole entry, looked up): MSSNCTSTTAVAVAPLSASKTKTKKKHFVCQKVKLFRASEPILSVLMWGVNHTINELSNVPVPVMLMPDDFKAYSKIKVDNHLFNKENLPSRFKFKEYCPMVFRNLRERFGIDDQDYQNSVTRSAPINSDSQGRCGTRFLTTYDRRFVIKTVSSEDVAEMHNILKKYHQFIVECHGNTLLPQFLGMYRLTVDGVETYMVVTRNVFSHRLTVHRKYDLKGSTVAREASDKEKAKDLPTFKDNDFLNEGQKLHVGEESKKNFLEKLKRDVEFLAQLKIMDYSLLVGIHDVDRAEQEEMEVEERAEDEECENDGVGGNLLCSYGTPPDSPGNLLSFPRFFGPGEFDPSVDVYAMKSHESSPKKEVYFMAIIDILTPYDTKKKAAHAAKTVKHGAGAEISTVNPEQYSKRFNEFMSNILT
Sequence of UniProt Q15831 (whole entry, looked up): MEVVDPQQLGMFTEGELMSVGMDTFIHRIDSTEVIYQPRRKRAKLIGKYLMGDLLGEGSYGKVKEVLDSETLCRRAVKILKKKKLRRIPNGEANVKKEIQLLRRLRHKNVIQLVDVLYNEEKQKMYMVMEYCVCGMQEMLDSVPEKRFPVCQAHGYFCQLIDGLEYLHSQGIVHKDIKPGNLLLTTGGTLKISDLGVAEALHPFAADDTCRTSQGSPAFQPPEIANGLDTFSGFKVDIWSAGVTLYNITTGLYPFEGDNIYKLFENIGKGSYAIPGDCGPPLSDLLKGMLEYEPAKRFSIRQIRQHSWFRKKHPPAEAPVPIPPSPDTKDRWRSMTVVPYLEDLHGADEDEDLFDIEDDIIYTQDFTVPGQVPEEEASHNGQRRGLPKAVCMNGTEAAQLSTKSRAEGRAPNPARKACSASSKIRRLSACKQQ
Sequence of UniProt Q96PF2 (whole entry, looked up): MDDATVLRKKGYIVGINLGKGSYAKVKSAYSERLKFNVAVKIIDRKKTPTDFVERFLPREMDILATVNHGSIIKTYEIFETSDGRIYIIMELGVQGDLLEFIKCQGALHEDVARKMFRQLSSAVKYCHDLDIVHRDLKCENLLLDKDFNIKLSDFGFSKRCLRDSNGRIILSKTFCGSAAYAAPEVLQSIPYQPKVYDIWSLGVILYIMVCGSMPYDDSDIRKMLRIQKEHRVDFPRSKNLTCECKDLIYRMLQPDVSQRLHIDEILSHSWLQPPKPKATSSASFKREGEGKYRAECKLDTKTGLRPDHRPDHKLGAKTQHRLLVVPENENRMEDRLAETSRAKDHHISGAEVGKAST
Sequence of UniProt Q16539 (whole entry, looked up): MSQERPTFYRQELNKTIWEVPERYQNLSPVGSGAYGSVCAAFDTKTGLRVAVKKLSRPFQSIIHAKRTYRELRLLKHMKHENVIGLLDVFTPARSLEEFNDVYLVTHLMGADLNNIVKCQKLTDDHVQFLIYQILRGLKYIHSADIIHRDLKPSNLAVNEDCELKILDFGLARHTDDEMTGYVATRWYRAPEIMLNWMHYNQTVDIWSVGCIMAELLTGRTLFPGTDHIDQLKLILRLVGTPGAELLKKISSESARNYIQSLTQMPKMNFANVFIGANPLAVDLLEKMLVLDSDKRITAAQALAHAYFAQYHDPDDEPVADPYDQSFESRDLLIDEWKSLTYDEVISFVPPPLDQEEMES
Sequence of UniProt Q9NSY1 (whole entry, looked up): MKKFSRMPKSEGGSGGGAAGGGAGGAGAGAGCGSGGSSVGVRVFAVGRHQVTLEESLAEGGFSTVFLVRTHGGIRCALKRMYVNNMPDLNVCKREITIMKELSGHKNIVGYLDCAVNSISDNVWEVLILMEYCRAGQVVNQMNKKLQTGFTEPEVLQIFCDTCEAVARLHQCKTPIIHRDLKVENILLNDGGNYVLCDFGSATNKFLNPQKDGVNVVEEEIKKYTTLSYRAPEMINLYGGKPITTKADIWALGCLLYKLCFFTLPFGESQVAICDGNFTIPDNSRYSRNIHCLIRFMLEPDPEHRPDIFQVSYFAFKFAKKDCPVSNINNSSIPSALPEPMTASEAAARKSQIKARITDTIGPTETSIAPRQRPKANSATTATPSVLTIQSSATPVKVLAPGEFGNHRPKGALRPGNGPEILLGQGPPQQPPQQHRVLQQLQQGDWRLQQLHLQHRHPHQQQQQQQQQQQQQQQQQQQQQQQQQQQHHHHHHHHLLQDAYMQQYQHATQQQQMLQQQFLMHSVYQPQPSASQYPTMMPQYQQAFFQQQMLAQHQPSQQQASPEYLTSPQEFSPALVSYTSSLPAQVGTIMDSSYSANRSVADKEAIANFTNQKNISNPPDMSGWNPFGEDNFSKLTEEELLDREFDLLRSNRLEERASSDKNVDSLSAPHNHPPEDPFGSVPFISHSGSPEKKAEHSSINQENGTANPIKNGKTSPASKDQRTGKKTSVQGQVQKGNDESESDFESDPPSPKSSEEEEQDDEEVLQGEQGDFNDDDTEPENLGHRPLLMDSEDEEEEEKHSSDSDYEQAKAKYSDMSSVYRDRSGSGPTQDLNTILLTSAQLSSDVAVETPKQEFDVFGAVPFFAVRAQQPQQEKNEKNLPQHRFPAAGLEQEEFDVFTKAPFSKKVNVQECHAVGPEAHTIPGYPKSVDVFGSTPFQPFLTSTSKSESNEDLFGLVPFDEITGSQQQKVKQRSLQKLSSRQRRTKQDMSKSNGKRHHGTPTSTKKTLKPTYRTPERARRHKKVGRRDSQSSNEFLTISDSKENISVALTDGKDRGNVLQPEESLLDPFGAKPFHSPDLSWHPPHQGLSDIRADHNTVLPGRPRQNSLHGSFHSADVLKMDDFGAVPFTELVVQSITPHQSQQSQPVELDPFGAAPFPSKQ
Sequence of UniProt O14965 (whole entry, looked up): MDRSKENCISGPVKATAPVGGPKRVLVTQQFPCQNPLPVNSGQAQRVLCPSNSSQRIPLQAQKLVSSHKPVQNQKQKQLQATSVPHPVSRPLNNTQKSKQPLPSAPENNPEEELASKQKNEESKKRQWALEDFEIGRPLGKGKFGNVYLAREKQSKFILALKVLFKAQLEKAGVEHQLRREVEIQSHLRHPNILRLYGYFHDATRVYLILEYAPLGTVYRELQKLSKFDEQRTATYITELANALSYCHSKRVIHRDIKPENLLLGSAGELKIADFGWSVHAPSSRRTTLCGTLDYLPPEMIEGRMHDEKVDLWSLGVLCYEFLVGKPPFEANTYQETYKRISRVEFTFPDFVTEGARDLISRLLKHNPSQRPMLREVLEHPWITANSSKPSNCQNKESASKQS
Sequence of UniProt Q99640 (whole entry, looked up): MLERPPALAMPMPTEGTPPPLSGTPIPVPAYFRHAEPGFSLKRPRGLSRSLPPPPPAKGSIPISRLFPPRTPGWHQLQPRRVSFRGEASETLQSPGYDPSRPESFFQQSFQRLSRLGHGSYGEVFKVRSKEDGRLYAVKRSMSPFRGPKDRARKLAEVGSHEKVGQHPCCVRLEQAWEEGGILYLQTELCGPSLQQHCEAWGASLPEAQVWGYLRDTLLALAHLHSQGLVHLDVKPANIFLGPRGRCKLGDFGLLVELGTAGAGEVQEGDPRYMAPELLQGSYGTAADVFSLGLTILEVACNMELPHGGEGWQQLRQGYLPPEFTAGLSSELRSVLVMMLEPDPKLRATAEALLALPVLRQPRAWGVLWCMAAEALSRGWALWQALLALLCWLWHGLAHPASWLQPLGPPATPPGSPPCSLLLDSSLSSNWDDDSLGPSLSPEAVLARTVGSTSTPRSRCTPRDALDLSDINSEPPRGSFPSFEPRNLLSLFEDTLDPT

Sample 1 — host: human; sample: microsomes or S9; tested at: 2 µM; time: 0.5 h
Structure (SMILES) | remaining compound [%]
Cc1sc2[nH]c(=O)n3nc(-c4ccncc4)nc3c2c1C | 23.1
COc1cc(=O)n(C)cc1C(=O)NCCOc1ccc(F)cc1 | > 99
Cc1ccc(Nc2nc(Cl)nc(NC(C)C)n2)cc1 | 1.18
COC(=O)c1c(SC)nn2c(=S)[nH]cnc12 | 73.5
CC1=CC[C@H]2C(C)(C)[C@H](O)CC[C@]2(C)[C@H]1COc1ccc2ccc(=O)oc2c1 | 46.1
CN(Cc1n[nH]c2c1CCCCC2)C(=O)CCC1(Cc2ccc(-c3ccccc3)cc2)CCC(=O)N1 (centres unmarked) | 0.588
Clc1nnc(Cl)c2c1ncn2Cc1ccccc1 | 87.7
Cc1cc(Br)ccc1OCCOCCN1CC(C)OC(C)C1 (centres unmarked) | 4.07

Sample 2 — organism: Sarcocystis neurona; read-out: parasite growth; tested at: 10 µM
Compound | inhibition [%]
CC1(C)S[C@@H]2[C@H](NC(=O)[C@H](N)c3ccc(O)cc3)C(=O)N2[C@H]1C(=O)O | -21.1
CCC(=O)OCC(=O)[C@@]1(OC(=O)CC)[C@@H](C)C[C@H]2[C@@H]3CCC4=CC(=O)C=C[C@]4(C)[C@@]3(Cl)[C@@H](O)C[C@@]21C | -24.6
CCCCC[C@H](O)/C=C/[C@H]1[C@H](O)CC(=O)[C@@H]1CCCCCCC(=O)O | -31.7
O=C1c2c(O)ccc(O)c2C(=O)c2c(NCCNCCO)ccc(NCCNCCO)c21 | 59.9
CCN1CCC[C@H]1CNC(=O)c1c(O)c(Cl)cc(Cl)c1OC | 3.8
Nc1ccn([C@@H]2O[C@H](CO)[C@@H](O)[C@@H]2O)c(=O)n1 | -40.9
CC1Cc2ccccc2N1NC(=O)c1ccc(Cl)c(S(N)(=O)=O)c1 (centres unmarked) | -35.9

Sample 3 — read-out: enzyme activity; action: inhibitor; tested at: 0.5 µM; relative to: control
Structure (SMILES): Cc1cc(Nc2cc(N3CCN(C)CC3)nc(Sc3ccc(NC(=O)C4CC4)cc3)n2)[nH]n1
target | remaining activity
MAPKAPK3 (Homo sapiens, UniProt Q16644) | 97.7%
Cyclin-dependent kinase 4, with cyclin D3 (CDK4, Homo sapiens, UniProt P11802) | 99.2%
TSSK2 (Homo sapiens, UniProt Q96PF2) | 83.8%
EPHB4 (Homo sapiens, UniProt P54760) | 46.1%
STK17A (Homo sapiens, UniProt Q9UEE5) | 104%
WNK3 (Homo sapiens, UniProt Q9BYP7) | 93.3%
SRMS (Homo sapiens, UniProt Q9H3Y6) | 95.9%
Cyclin-dependent kinase 6, with cyclin D3 (CDK6, Homo sapiens, UniProt Q00534) | 121%

Sample 4 — SMILES: c1ccc(N2CCN(Cc3nc4ccccc4[nH]3)CC2)nc1; tested at: 1 µM
target | read-out | technique | remaining binding [%]
ACVR2A (Homo sapiens, UniProt P27037) | cell-free assay | competition with immobilised ligand | 100
KDR (Homo sapiens, UniProt P35968) | cell-free assay | competition with immobilised ligand | 100
CAMK2D (Homo sapiens, UniProt Q13557) | cell-free assay | competition with immobilised ligand | 91
PKMYT1 (Homo sapiens, UniProt Q99640) | binding | competition with immobilised ligand | 100
SRPK3 (Homo sapiens, UniProt Q9UPE1) | binding | competition with immobilised ligand | 100
DDR2 (Homo sapiens, UniProt Q16832) | cell-free assay | competition with immobilised ligand | 100
BMP2K (Homo sapiens, UniProt Q9NSY1) | binding | competition with immobilised ligand | 100
STK11 (Homo sapiens, UniProt Q15831) | binding | competition with immobilised ligand | 70
ERBB4 (Homo sapiens, UniProt Q15303) | binding | competition with immobilised ligand | 95
KIT (Homo sapiens, UniProt P10721, D816H) | binding | competition with immobilised ligand | 100
CLK1 (Homo sapiens, UniProt P49759) | binding | competition with immobilised ligand | 100
MAPK6 (Homo sapiens, UniProt Q16659) | binding | competition with immobilised ligand | 100
PIP4K2B (Homo sapiens, UniProt P78356) | cell-free assay | competition with immobilised ligand | 100
LTK (Homo sapiens, UniProt P29376) | cell-free assay | competition with immobilised ligand | 100
MAPK14 (Homo sapiens, UniProt Q16539) | binding | competition with immobilised ligand | 89
EPHB2 (Homo sapiens, UniProt P29323) | cell-free assay | competition with immobilised ligand | 98
SIK1 (Homo sapiens, UniProt P57059) |  | competition binding | 100
MAPK1 (Homo sapiens, UniProt P28482) | binding | competition with immobilised ligand | 100
Macrophage colony-stimulating factor 1 receptor, autoinhibited (CSF1R, Homo sapiens, UniProt P07333) | cell-free assay | competition with immobilised ligand | 100
LATS2 (Homo sapiens, UniProt Q9NRM7) | binding | competition with immobilised ligand | 75
LIM domain kinase 1 (LIMK1, Homo sapiens, UniProt P53667) | binding | competition with immobilised ligand | 100
Aurora kinase A (AURKA, Homo sapiens, UniProt O14965) | cell-free assay | competition with immobilised ligand | 89
NEK10 (Homo sapiens, UniProt Q6ZWH5) | binding | competition with immobilised ligand | 100
DCLK2 (Homo sapiens, UniProt Q8N568) | binding | competition with immobilised ligand | 98
EIF2AK2 (Homo sapiens, UniProt P19525) | binding | competition with immobilised ligand | 100

Further values, each from its own experiment — cell line: Gaucher fibroblasts L444P/L444P; technique: 4-MUG hydrolysis, cell lysate; time: 72 h; together with: ISRIB; relative to: vehicle
Compound | tested at | GCase activity
c1ccc2c(-c3nn4c(-c5ccncc5)nnc4s3)c[nH]c2c1 | 0.5 µM | 199% and 213% and 212% and 222% and 220% and 195% and 190% and 196%
Ic1ccc(Nc2nc(NCCN3CCOCC3)nc(N3CCOCC3)n2)cc1 | 1 µM | 133% and 148% and 169% and 145% and 151% and 143% and 135% and 116%

For quick reference, copied from above (sample 4):
target | read-out | technique | remaining binding [%]
MAPK1 (Homo sapiens, UniProt P28482) | binding | competition with immobilised ligand | 100
Macrophage colony-stimulating factor 1 receptor, autoinhibited (CSF1R, Homo sapiens, UniProt P07333) | cell-free assay | competition with immobilised ligand | 100
LATS2 (Homo sapiens, UniProt Q9NRM7) | binding | competition with immobilised ligand | 75
LIM domain kinase 1 (LIMK1, Homo sapiens, UniProt P53667) | binding | competition with immobilised ligand | 100
Aurora kinase A (AURKA, Homo sapiens, UniProt O14965) | cell-free assay | competition with immobilised ligand | 89
NEK10 (Homo sapiens, UniProt Q6ZWH5) | binding | competition with immobilised ligand | 100
DCLK2 (Homo sapiens, UniProt Q8N568) | binding | competition with immobilised ligand | 98
